Measurements pooled from the literature.
Numbered parts are unrelated; each lists some results of a single study. Positions count from the first letter of the parent shown.

Series 1
Target: RNA binding protein fox-1 homolog 2, RRM domain, GST-SBP tag (RBFOX2, Homo sapiens, UniProt O43251-10, residues 100-194)
Technique: RNA Bind-n-Seq
Molecule type: RNA
Medium: in vitro
Concentration: 365 nM
Notes: natural RNA segment, single round, ends assumed
Baseline: no-protein control
Reading: higher = stronger binding
All sequences stand within: GGGAGUUCUACAGUCCGACGAUC … UGGAAUUCUCGGGUGCCAA
Residues (chain): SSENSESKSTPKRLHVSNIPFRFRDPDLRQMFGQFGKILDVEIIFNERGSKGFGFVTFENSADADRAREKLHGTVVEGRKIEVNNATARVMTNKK
`CGGCACAUGGAUGCCCACGCAUGUGCAAAAACAACUCAGGGACCAGGGACAGACCUGCUGCCAAGUGAGCCUGAUGGGCCACAGGUGUGCUCUUCUAAAUGGCCUGUGAG` — result for “RBNS enrichment (R)”: 4.76.
Under “RBNS enrichment (R)”, `UGUCUGCUACUUUGACCUCAUAAAGAAAUCUGCAACACAGAUGAAACCAGUCUGUGUGGCCAAGCUGAUGGGAUUUGAAAAGAGUGGAUAAUUUUUAGCCUUUCCAAAAU` is recorded as 0.351.
Under “RBNS enrichment (R)”, `AGAAGGGGAGGUAGGGUCGACUGUGAGUGCAUGCCAUCUUUGUCAGACUGGUGACAGAGUUCCUGUCUAACUGUCCUUUAUUUGAAAUAAACUGAGCUGAGUUGGUCUCU` is recorded as 7.68.
For `AGAUGAAUGGUUAACACGAGCUAGUUAAACAGUGCCAUUGUUUUGCCAGUGAAGCCUCCAACCCUAAGCCACUGGGACGGUGGCCAGAGAUGCCAGCAGCCUCUGUCGCC`, “RBNS enrichment (R)” read 0.428.
For `CUGGCUUAUCUCUCCACCCCAAACCUCCUUCCUGUCUGGUCCCCAGCCUGGGGGGGUUCUGAGCAGUGCCUCUUGUCUUGGAGACAGACCUGGUGCCUGGCGCUGCCUUC`, “RBNS enrichment (R)” read 0.487.
`CCGCACUUAGCAGGGGGACGGGACCGAAGCUCCCUCAAUCCUUGUCUGGUACUAGAUUUGCUCCUGUCCCACCCCGCAGUCCCCUGAGGAGGGCGAUGUGCGCCCUCUUU` — result for “RBNS enrichment (R)”: 0.27.
Under “RBNS enrichment (R)”, `AGCAAGAUUUUGGAAGCAUUCAUAUUUCCUUUUUAAAAUGUAUUCCUUUGUGUUCAACAGUUAAUCAAAACCAGAGAGUCUAGGGCAGCCUCUCUGAUGUUGUCAAUGAU` is recorded as 0.719.
`UUGUACAAAAUUUUAAAGACUUAAUUUAUUGCCAAAAUUCUGUGUAAAGUGACAGUGUAUCUAACAGUUGUUAGAGAACUCCCCAUUUCUGUUCCCCUGUGCUGUGUAUG` — result for “RBNS enrichment (R)”: 1.59.

Series 2
Target: ABI1, truncated, D143A, DHFR fusion (Arabidopsis thaliana)
Technique: DHFR PCA, deep sequencing
Medium: yeast
Notes: methotrexate growth selection, single substitutions
Added: (+)-ABA 0.39 µM
Baseline: wild-type fitted maximum
Reading: higher = stronger binding
Parent: PYL1, truncated, DHFR fusion (Arabidopsis thaliana); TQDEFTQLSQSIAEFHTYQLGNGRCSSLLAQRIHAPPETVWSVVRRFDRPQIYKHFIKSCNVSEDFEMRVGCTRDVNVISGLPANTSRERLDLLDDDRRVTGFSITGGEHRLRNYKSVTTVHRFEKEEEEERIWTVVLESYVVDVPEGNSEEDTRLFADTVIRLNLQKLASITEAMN
Under “relative binding score”, `V40T` is recorded as -1.24%.
`G108T`: “relative binding score” -2.01%.
`C25S`: “relative binding score” 1.93%.
Under “relative binding score”, `C25A` is recorded as 39.5%.
`V78F` — result for “relative binding score”: 104%.
`T119R` — result for “relative binding score”: -1.07%.
Under “relative binding score”, `Q2M` is recorded as 62.4%.
`A35P`: “relative binding score” -7.59%.
For `Y53S`, “relative binding score” read -10.1%.
`F5I`: “relative binding score” 44.6%.
`S63N`: “relative binding score” 35.7%.
Under “relative binding score”, `P37Y` is recorded as -3.05%.
Under “relative binding score”, `N22I` is recorded as 40.4%.
`T6F` — result for “relative binding score”: 25.7%.
For `N85C`, “relative binding score” read 60.6%.
`I133F`: “relative binding score” 21%.
For `L8Q`, “relative binding score” read 8.39%.
`D65I` — result for “relative binding score”: -1.24%.
Under “relative binding score”, `G71E` is recorded as -7.08%.
For `G107H`, “relative binding score” read 12.7%.
For `D96P`, “relative binding score” read -6.54%.

Series 3
Target: Ras GTPase-activating protein-binding protein 1, full length (G3BP1, Homo sapiens, UniProt Q13283)
UniProt Q13283, sequence (whole entry, looked up): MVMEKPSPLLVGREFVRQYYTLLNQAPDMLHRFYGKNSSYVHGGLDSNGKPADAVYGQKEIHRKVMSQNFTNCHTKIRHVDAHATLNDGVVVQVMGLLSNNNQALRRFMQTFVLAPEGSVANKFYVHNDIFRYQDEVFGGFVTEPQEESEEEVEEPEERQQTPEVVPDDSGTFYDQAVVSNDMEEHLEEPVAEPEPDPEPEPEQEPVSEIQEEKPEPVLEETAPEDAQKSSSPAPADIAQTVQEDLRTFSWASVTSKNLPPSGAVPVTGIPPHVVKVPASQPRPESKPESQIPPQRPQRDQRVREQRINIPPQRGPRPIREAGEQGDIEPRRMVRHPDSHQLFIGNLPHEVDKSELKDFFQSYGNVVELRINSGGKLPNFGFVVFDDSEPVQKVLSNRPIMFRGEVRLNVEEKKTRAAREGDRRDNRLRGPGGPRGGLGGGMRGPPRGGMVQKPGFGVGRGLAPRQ
Technique: RNA Bind-n-Seq
Molecule type: RNA
Medium: in vitro
Concentration: 200 nM
Notes: whole 134-nt RNA, ends assumed
Added: 150 mM LiCl
Baseline: input library
Reading: higher = stronger binding
All molecules: 7-deaza-guanosine replaces G
All sequences stand within: GGGAGUUCUACAGUCCGACGAUC … UGGAAUUCUCGGGUGUCAAGG
`UGGGAGGUGGAUUUUGUUUAUUUUUUUAGCUCAUUUCCAGGGGUGGGAAUUUUUUUUUAAUAUGUGUCAUGAAUAAAGUUGGUUUUGAAA` gave a log2 enrichment of 0.165.
`CCUGUGCUACACAUCGUAUGUACCGAAUCGGGGUUUUUUUGGGGAAAAAAAGGGGUGGGGAAAGUAUUAUGUUACGCCGUUCGGAUCUGC` gave a log2 enrichment of 0.107.
`CUCAAGUCCUGUGCUACACAUCGUAUGUACCGAAUCGGGGAAGGAAGGAAGGGAAAGUAUUAUGUUACGCCGUUCGGAUCUGCACUUCCA` has a log2 enrichment of -0.535.
For `CCUCAGUGUCAUUUAUGAAAAGAGGGGACCAGAAGCCAAAGACUUAGUAUAUUUUCUUUUCCUCUGUCCCUUCCCCCAUAAGCCUCCAUU`, the log2 enrichment was 0.564.
`AAGUCCUGUGCUACACAUCGUAUGUACCGAAUCGGUUUUGGGUUUUGGUUUUGGGGAAAGUAUUAUGUUACGCCGUUCGGAUCUGCACUU` has a log2 enrichment of -0.506.
`AGUCCUGUGCUACACAUCGUAUGUACCGAAUCGGGAAAAAGGGAAAAAGGGUUUGGGAAAGUAUUAUGUUACGCCGUUCGGAUCUGCACU` gave a log2 enrichment of -2.36.
The log2 enrichment of `GCAGGAAGUAAAAACAAAUGGAAAUGCUUCGGAUAGUGGCAGGGGUGGGGGUUGCUAAGGAAAGGGUGGGAUGGGAGUGUGUAAAGAGUU` is reported as 0.0957.
With `UUCACACCAAGCUGGGGAACAUCAAGACCUUAAACCUGGCAGGCAACCUCCUAGAGAGUCUGAGUGGCCUGCACAAGCUCUACUCACUGG` the log2 enrichment was -0.625.

Series 4
Target: Histone acetyltransferase KAT6A, winged helix 2, GST fusion (KAT6A, Homo sapiens, UniProt Q92794, residues 85-181)
Technique: protein binding microarray
Molecule type: double-stranded DNA, one strand shown
Medium: in vitro
Concentration: not given
Notes: 8-mer, flanks averaged, mean of 2 arrays, mostly near background
Baseline: not given
Reading: higher = stronger binding
Residues (chain): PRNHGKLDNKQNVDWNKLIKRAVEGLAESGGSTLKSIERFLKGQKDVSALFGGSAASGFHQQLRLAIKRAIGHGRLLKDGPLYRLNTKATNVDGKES
The E-score of `AGATCATG` is reported as -0.0285.
`ATAGCCCG` has an E-score of -0.00456.
For `CACGTAAC`, the E-score was -0.241.
`TCTGACAA` has an E-score of 0.112.
With `CTACCTTA` the E-score was -0.104.
`ATATCTAG` has an E-score of 0.0277.
With `CATATCCA` the E-score was -0.11.
`CGGCAGGC` has an E-score of 0.127.
`ACCCATCT` gave an E-score of -0.0565.
With `ATTATTCA` the E-score was 0.0941.
`AACTGGTG` has an E-score of -0.0728.
`CAAGGGTG` has an E-score of -0.0539.
`GATGCGGA` has an E-score of 0.0205.
`CTCACACC` has an E-score of -0.0708.
`GTGGCAAA` gave an E-score of 0.0309.
For `CTTCGAGA`, the E-score was 0.047.
The E-score of `CGGGTACA` is reported as -0.092.
For `CCTCGAGA`, the E-score was 0.0979.
`GTATCTGA` gave an E-score of -0.104.
